# Measured values of several laboratories.
# Every numbered part comes from another study and shows a few of its results, in no order.

# Study 1
# Target: Histone acetyltransferase KAT6A, winged helix 1, GST fusion (KAT6A, Homo sapiens, UniProt Q92794, residues 1-85)
# Method: protein binding microarray
# Molecule type: double-stranded DNA, one strand shown
# Sample: in vitro
# Tested at: not given
# Setting: 8-mer, flanks averaged, mean of 2 arrays, mostly near background
# Baseline: not given
# Reading: higher = stronger binding
# Construct (chain): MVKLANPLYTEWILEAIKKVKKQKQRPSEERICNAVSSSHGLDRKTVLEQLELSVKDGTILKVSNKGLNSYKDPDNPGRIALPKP
Oligonucleotide,E-score
AGGAAGGC,-0.241
TGTGAACA,-0.149
ACAGCACG,0.042
TCTATAAA,-0.281
CAGACAAG,-0.146
ATCTGCCC,0.034
CAGACAAA,-0.238
CCGCCCCA,0.096
ACCTGTGA,-0.194
ACCAACGC,-0.0284
ACGGACCA,0.168
CAAGAGCG,0.163

# Study 2
# Target: Hepatocyte nuclear factor 3-beta, forkhead domain (FOXA2, Homo sapiens, UniProt Q9Y261, residues 142-269)
# Method: protein-binding microarray
# Molecule type: hairpin DNA
# Sample: in vitro
# Tested at: not given
# Setting: whole hairpin DNA, median over replicate spots
# Baseline: not given
# Reading: higher = stronger binding
# Construct (chain): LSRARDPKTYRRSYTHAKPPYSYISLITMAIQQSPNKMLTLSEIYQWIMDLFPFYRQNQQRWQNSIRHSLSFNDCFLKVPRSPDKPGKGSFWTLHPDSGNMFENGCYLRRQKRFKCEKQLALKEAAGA
Oligonucleotide,median fluorescence
GAGGCCATGTAACCACGGCCTCCTGGCCGTGGTTACATGGCCTCACACTC,2960 a.u.
GAGGCCGTGTAACCAACGCCTCCTGGCGTTGGTTACACGGCCTCACACTC,3290 a.u.
GAGGCCATGTACGCAACGCCTCCTGGCGTTGCGTACATGGCCTCACACTC (5mC at 32),3620 a.u.
GAGGCCATGCAACGAACGCCTCCTGGCGTTCGTTGCATGGCCTCACACTC (5mC at 13),3470 a.u.
GAGGCCATGCAAACAATGCCTCCTGGCATTGTTTGCATGGCCTCACACTC,3700 a.u.
GAGGCCGTGTAACCAACGCCTCCTGGCGTTGGTTACACGGCCTCACACTC (5mC at 38),3120 a.u.
GAGGCCATGTAAAGAACGCCTCCTGGCGTTCTTTACATGGCCTCACACTC,3090 a.u.
GAGGCCATGCAAACATCGCCTCCTGGCGATGTTTGCATGGCCTCACACTC,3680 a.u.
GAGGCCATGTCGCCAACGCCTCCTGGCGTTGGCGACATGGCCTCACACTC (5mC at 11),3190 a.u.
GAGGCCATGTAACCCGCGCCTCCTGGCGCGGGTTACATGGCCTCACACTC (5mC at 15),3300 a.u.
GAGGCCATGTAACCAACGCCTCCTGGCGTTGGTTACATGGCCTCACACTC (5mC at 17),3170 a.u.
GAGGCCATGAAAACAACGCCTCCTGGCGTTGTTTTCATGGCCTCACACTC,3150 a.u.
GAGGCCATGTAAACAACGCCTCCTGGCGTTGTTTACATGGCCTCACACTC (5mC at 36),4600 a.u.
GAGGCCATGAAACCAACGCCTCCTGGCGTTGGTTTCATGGCCTCACACTC,3090 a.u.

# Study 3
# Target: UBE2Z UBC core domain (UniProt Q9H832)
# Method: yeast two-hybrid
# Sample: yeast
# Setting: mostly zero background
# Baseline: not given
# Reading: higher = stronger interaction
# B1: RING1 RING domain (UniProt Q06587); chain SPRSLHSELMCPICLDMLKNTMTTKECLHRFCSDCIVTALRSGNKECPTCRKKLVSKRSLR
# B2: VPS8 RING domain (UniProt Q8N3P4); chain TRGLNPKQDYCSICLQQYKRRQEMADEIIVFSCGHLYHSFCLQNKECTVEFEGQTRWTCYKCSSSNKVGKLSE
# B3: RNF182 RING domain (UniProt Q8N6D2); chain AESQASDELECKICYNRYNLKQRKPKVLECCHRVCAKCLYKIIDFGDSPQGVIVCPFCRFETCLPDDEV
# B4: MID2 RING domain (UniProt Q9UJV3); chain KMETLESELTCPICLELFEDPLLLPCAHSLCFSCAHRILVSSCSSGESIEPITAFQCPTCRYVISLNHRGL
# Construct (chain): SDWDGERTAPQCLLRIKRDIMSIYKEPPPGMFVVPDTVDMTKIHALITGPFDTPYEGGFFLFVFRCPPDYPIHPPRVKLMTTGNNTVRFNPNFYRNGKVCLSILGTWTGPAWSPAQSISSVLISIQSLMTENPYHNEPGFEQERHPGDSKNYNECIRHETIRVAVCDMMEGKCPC
Molecule,lacZ reporter activity
DDVLTKDAGECVICLEELLQGDTIARLPCLCIYHKSCIDSWFEVNRSCPEHPAD (ZNRF1 RING domain (UniProt Q8ND25)),0
B1 (RING1 RING domain),0
B2 (VPS8 RING domain),0
B3 (RNF182 RING domain),0
LVKDFNPYITCYICKGYLIKPTTVTECLHTFCKTCIVQHFEDSNDCPRCGNQVHETNPLE (PCGF5 RING domain (UniProt Q86SE9)),0
B4 (MID2 RING domain),0

# Study 4
# Target: Fragile X messenger ribonucleoprotein 1, C-terminal low-complexity region (Fmr1, Mus musculus, UniProt P35922)
# Method: RNA Bind-n-Seq
# Molecule type: RNA
# Sample: in vitro
# Tested at: 200 nM
# Setting: whole 134-nt RNA, ends assumed
# With: 150 mM KCl
# Baseline: input library
# Reading: higher = stronger binding
Oligonucleotide,log2 enrichment
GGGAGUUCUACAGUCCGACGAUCCCUGUGCUACACAUCGUAUGUACCGAAUCGGGUUUUUGGGAAAAAAAGGGUUUUUUUGGGAAAGUAUUAUGUUACGCCGUUCGGAUCUGCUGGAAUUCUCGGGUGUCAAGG,-0.816
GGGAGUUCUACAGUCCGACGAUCGCAGGAAGUAAAAACAAAUGGAAAUGCUUCGGAUAGUGGCAGGGGUGGUGGUUGCUAAGGAAAGGGUGGGAUGGGAGUGGGUAAAGAGUUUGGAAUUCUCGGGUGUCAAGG,0.154
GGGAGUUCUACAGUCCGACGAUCAGUCCUGUGCUACACAUCGUAUGUACCGAAUCGGGAAAAAGGAAAAAGGGAAAAAGGGAAAGUAUUAUGUUACGCCGUUCGGAUCUGCACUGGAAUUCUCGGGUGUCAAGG,-0.55
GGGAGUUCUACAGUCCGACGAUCUAACUUUAGAGGAGGAUCUGAGGGAUAUGGCAGUGGACGUGGAUUUGGGGAUGGCUAUAAUGGGUAUGGAGGAGGACCUGGAGGUGGCAAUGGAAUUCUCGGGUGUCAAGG,0.34
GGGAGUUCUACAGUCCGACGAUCCUCAAGUCCUGUGCUACACAUCGUAUGUACCGAAUCGGCCGGCCGGGCCGGGGAAAGUAUUAUGUUACGCCGUUCGGAUCUGCACUUCCAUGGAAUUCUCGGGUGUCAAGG,-0.346
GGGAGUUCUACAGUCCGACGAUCUCAAGUCCUGUGCUACACAUCGUAUGUACCGAAUCGGUUUGGUUUGGGUUUGGGAAAGUAUUAUGUUACGCCGUUCGGAUCUGCACUUCCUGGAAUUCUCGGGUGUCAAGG,-0.552
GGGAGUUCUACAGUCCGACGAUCGUCCUGUGCUACACAUCGUAUGUACCGAAUCGGCCCCCCGGGCCCCCCGGCCCCCCGGAAAGUAUUAUGUUACGCCGUUCGGAUCUGCACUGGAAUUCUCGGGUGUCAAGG,0.154
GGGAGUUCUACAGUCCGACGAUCGUCCUGUGCUACACAUCGUAUGUACCGAAUCGGGGAAAAAGGGGAGGGGUUUUUGGGGAAAGUAUUAUGUUACGCCGUUCGGAUCUGCACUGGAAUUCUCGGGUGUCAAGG,0.367
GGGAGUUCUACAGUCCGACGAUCUCCUGUGCUACACAUCGUAUGUACCGAAUCGGAAAAAGGGGAAAAAGGGGAAAAAGGGGAAAGUAUUAUGUUACGCCGUUCGGAUCUGCAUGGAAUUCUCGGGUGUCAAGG,0.113
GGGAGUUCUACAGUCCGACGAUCUCAAGUCCUGUGCUACACAUCGUAUGUACCGAAUCGGGGUGGGGUGGGGUGGGGAAAGUAUUAUGUUACGCCGUUCGGAUCUGCACUUCCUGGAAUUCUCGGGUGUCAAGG,1.23
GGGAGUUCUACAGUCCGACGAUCCAAGUCCUGUGCUACACAUCGUAUGUACCGAAUCGGGUUUGGGUGGGAAAAAGGGAAAGUAUUAUGUUACGCCGUUCGGAUCUGCACUUCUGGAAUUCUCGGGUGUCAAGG,1.02
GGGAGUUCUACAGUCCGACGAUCACCAUGCAGGUGGGCAUCUGUGGGAAGUGGGGCAAGGGGGGGAUAGGGAGGGGGGUAACACUUUGGGAACAGGUGGUCCCAGGUCGUUUCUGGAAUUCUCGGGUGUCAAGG,1.12
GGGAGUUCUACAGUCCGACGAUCGUCCUGUGCUACACAUCGUAUGUACCGAAUCGGGGUUUUGGGGUUUUGGGGUUUUGGGAAAGUAUUAUGUUACGCCGUUCGGAUCUGCACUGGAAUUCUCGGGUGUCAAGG,0.331
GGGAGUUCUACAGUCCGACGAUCUGAUCUCCAGGAUGACAUGCGAAGAUGCCAAAUCAUCCGAGACAUGAUUGGACCGGAAAAGACUUUGGUAAAUAUCCUCUCACACCACUAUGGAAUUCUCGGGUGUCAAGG,-0.921

# Some of these lines once more (study 3):
Molecule,lacZ reporter activity
DDVLTKDAGECVICLEELLQGDTIARLPCLCIYHKSCIDSWFEVNRSCPEHPAD (ZNRF1 RING domain (UniProt Q8ND25)),0
B1 (RING1 RING domain),0
B2 (VPS8 RING domain),0
B3 (RNF182 RING domain),0
LVKDFNPYITCYICKGYLIKPTTVTECLHTFCKTCIVQHFEDSNDCPRCGNQVHETNPLE (PCGF5 RING domain (UniProt Q86SE9)),0
B4 (MID2 RING domain),0
